Measured values of several laboratories.
Numbered parts are unrelated; each lists some results of a single study.

Series 1
Target: Centromere-binding protein 1, full length, N-terminal tag (CBF1, Saccharomyces cerevisiae, UniProt P17106, residues 1-351)
UniProt P17106, sequence (whole entry, looked up): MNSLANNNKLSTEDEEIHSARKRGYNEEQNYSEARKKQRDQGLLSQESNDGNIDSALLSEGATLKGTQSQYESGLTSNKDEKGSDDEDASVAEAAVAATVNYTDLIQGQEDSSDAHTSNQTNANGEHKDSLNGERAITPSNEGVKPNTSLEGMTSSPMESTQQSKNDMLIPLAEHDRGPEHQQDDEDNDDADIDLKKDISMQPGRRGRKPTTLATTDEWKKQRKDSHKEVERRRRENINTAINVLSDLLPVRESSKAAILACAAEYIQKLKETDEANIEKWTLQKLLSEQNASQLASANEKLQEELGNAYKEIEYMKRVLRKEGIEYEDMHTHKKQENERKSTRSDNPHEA
Method: protein-binding microarray
Form: double-stranded DNA, one strand shown
Matrix: in vitro
Tested at: 0.8 µM
Notes: whole 60-bp probe, no competitor
Reading: higher = stronger binding
Oligonucleotide	fluorescence intensity [a.u.]
GAACGGCTGCAGTATTCCATGTGATATCTACCGTAGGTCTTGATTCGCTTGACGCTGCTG	936
CTAGTAACCCACTTTAACGTGACTGGACCTGAGTTCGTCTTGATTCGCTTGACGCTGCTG	824
CTAATACTATGGGTGCAGGTGAGGCGGTTTTTTTTCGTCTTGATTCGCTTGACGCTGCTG	545
CTACTTTGCCAACGTGTTGTCTTTGACGTACGTTTCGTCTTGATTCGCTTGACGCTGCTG	586
CTATTAAAGACAGGCAGCAGGTGAAGATAATACTTCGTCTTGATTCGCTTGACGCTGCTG	534
CTACTCGAGTTTACCATGTGAACCGAAGGCATGTTCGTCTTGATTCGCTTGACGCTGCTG	624
CTAATGTACTTCCCACATGTGCCACGACCGTTCTTCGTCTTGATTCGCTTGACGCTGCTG	732
CTACCCATCGCATATCAGGAGAACTTCCCTGTGTTCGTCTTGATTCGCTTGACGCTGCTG	524
GAATACTTATGTATTTGCGTGATAAACTTGCTTTAGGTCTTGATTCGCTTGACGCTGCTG	541
GAAATACATTTACATCAGGTAAAGTATCATTTTTAGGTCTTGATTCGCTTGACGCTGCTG	492
GAAATTCAAGCCATTCACACCATGAGGAACGGATAGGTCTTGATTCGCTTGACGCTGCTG	504
CTATGGTGCTCCCGTTACGTGGTCATCGAAGAATTCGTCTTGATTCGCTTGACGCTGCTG	572
CTATTGTTTTTGCACCACCTTGTTACATATAATTTCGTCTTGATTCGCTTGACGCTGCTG	577
GAACCCCTTTATGGTCCCACCACGCGTACTGTATAGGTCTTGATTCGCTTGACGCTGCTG	575
TGTACGAAGCTATATCACGTCCATATAGTAGTTAGGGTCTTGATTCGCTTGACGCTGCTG	610
CTATTCACGAACGTTCACCAGACATTTGGAGGCTTCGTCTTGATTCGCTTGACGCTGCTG	509
CTAAAAGCGGCCAATCACGCCCGAAGACGGGACTTCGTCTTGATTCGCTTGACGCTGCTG	530
CTACGGCAAATAAATCATCTCCTGAACCATTTTTTCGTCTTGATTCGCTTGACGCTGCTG	546
GAATCAATAGTTCATGTGGTATCAGTATTTCTGTAGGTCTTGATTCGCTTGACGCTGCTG	575
CTATTACAAGTGTGTCACCATTTCCGGCCCACCTTCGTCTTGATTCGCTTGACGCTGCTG	523
CCTAACTACTATAATCACACCCAATAGCTTCGTACAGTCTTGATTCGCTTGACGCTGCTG	575
CTAGCATAACAGGATCACGGTTATCACCTGTTTTTCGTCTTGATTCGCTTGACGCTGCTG	773
CTATTTTTCATTTATCCAGTCACAATTTTAAAATTCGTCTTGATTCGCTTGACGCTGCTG	696
TGTACGAAGCTATCTCACATGGTTATAGTAGTTAGGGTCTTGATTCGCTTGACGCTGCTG	652
GAATTGCTATCGTTCAACACCACCTTATTTTCTTAGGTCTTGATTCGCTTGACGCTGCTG	540

Series 2
Target: Probable WRKY transcription factor 50, DNA-binding domain (WRKY50, Arabidopsis thaliana, UniProt Q8VWQ5, residues 99-173)
Method: DNA-protein interaction ELISA
Form: double-stranded DNA, one strand shown
Matrix: in vitro, bacterial lysate
Tested at: not given
Notes: whole dsDNA probe, crude lysate protein
Baseline: highest signal in screen
Reading: higher = stronger binding
Target sequence (chain): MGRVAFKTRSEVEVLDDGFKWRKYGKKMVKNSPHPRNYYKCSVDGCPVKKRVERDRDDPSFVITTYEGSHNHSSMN
Oligonucleotide	relative absorbance
AAAAAACCCTAACGAATGCTTTTCGGAAAA	13.1 % of maximum
AAAAAATGTCTTCTTACACCCTCTAGAAAA	8.99 % of maximum
AAAAAACAGTTCGATGTCACCCCCGCAAAA	12.7 % of maximum
AAAAAACTTCCCTCCTTGTCCTCCCCAAAA	24.5 % of maximum
AAAAAACTACGTATATTCAGGCCCTAAAAA	9.02 % of maximum
AAAAAAAGTTTGACCTTGGCGTTCGTAAAA	100 % of maximum
AAAAAAGGGTTTGTCGGGAATTGCCGAAAA	10 % of maximum
AAAAAATCGCGAACGTACGTCCGCGGAAAA	9.97 % of maximum
AAAAAACGCCGGACAATCAGGCGCTCAAAA	19.9 % of maximum
AAAAAAGTTTCCTACTTGTGTCTGTGAAAA	16.9 % of maximum
AAAAAATTTTGTGGTGTTTCGCCACCAAAA	15.5 % of maximum
AAAAAAACAGCTCGGTGCCACTGTGGAAAA	20.6 % of maximum
AAAAAATCGTAAATGCCCATAGCCGTAAAA	14.9 % of maximum
AAAAAAGGGGTCCTTTTCCAATGTCTAAAA	53.3 % of maximum
AAAAAAGTTATTATACCTGATCTCGCAAAA	11.9 % of maximum
AAAAAATCATTTTATTTTGCCTTTCTAAAA	14.8 % of maximum
AAAAAACCAGTCTACACCGCTGTAGGAAAA	15.2 % of maximum
AAAAAACTGTCTGTCCTATATCACTTAAAA	18.3 % of maximum
AAAAAATATGTTTTCGCTTTATTCTTAAAA	11.2 % of maximum
AAAAAACGGTAAGTCGACAAAA	23.3 % of maximum
AAAAAACACTCACACCTATACGGCTCAAAA	20.2 % of maximum
AAAAAATCCACGACTCAGCAGCTCTTAAAA	19.9 % of maximum
AAAAAATGGAAGGAGAGGGATGAAATAAAA	33.3 % of maximum
AAAAAAGGGCGAGCGCTGGATCCACAAAA	19 % of maximum
AAAAAAAAATGCTAGCGCGTACGTAAAAAA	28.4 % of maximum

Series 3
Target: Ras GTPase-activating protein-binding protein 1, full length (G3BP1, Homo sapiens, UniProt Q13283)
UniProt Q13283, sequence (whole entry, looked up): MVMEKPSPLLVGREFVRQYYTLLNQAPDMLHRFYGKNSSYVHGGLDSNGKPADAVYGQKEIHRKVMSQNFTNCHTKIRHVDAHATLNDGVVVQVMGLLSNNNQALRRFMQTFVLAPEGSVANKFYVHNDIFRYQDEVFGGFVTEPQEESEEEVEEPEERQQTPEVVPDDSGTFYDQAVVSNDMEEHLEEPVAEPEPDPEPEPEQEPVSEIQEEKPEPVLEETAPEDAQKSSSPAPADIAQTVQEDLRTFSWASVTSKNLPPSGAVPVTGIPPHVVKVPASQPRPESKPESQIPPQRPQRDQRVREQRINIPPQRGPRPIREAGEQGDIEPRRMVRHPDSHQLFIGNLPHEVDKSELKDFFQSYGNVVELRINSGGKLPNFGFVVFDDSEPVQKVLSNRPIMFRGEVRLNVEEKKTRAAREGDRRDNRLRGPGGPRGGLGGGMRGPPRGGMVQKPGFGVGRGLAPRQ
Method: RNA Bind-n-Seq
Form: RNA
Matrix: in vitro
Tested at: 200 nM
Notes: whole 134-nt RNA, ends assumed
Added: 150 mM LiCl
Baseline: input library
Reading: higher = stronger binding
Library: 7-deaza-guanosine replaces G
Oligonucleotide	log2 enrichment
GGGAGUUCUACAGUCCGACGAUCCCUGUGCUACACAUCGUAUGUACCGAAUCGGGUUUUUUUGGGAAAAAGGGUUUUUUUGGGAAAGUAUUAUGUUACGCCGUUCGGAUCUGCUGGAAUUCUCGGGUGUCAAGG	-2.22
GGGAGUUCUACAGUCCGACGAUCUGGGAGGUGGAUUUUGUUUAUUUUUUUAGCUCAUUUCCAGGGGUGGGAAUUUUUUUUUAACAUGUGUCAUGAAUAAAGUUGUUUUUGAAAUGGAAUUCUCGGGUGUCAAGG	-0.56
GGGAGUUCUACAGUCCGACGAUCUCCUGUGCUACACAUCGUAUGUACCGAAUCGGGGUUUUUUGGGUUUUUUGGUUUUUUGGGAAAGUAUUAUGUUACGCCGUUCGGAUCUGCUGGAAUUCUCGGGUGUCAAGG	0.498
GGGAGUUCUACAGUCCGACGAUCCAAGUCCUGUGCUACACAUCGUAUGUACCGAAUCGGCCCCGGGGCCCCGGCCCCGGAAAGUAUUAUGUUACGCCGUUCGGAUCUGCACUUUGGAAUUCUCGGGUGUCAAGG	-0.822
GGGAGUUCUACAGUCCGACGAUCUAACUUUAGAGGAGGAUCUGAUGGAUAUGGCAGUGGACGUGGAUUUGGGGAUGGCUAUAAUGGGUAUGGAGGAGCACCUGGAGGUGGCAAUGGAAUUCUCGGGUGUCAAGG	0.282
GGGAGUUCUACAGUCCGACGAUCGCAGGAAGUAAAAAUAAAUGGAAAUGCUUCGGAUAGUGGCAGGGGUGGGGGUUGCUAAGGAAAGGGUGGGAUGGGAGUGGGUAAAGAGUUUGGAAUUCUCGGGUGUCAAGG	0.111
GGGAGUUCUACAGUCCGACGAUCGUCCUGUGCUACACAUCGUAUGUACCGAAUCGGCCCCCCGGGCCCCCCGGCCCCCCGGGAAAGUAUUAUGUUACGCCGUUCGGAUCUGCAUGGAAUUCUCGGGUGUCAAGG	-1.1
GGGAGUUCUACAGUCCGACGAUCUGGGAGGUGGAUUUUGUUAAUUUUUUUAGCUCAUUUCCAGGGGUGGGAAUUUUUUUUUAAUAUGUGUCAUGAAUAAAGUUGUUUUUGAAAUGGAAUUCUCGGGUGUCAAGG	-0.664

Series 4
Target: Transcription factor SOX-2, HMG box (SOX2, Homo sapiens, UniProt P48431, residues 19-118)
UniProt P48431, sequence (19-118, looked up): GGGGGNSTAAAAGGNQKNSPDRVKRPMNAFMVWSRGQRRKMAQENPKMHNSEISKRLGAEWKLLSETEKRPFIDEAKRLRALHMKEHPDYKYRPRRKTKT
Method: protein-binding microarray
Form: double-stranded DNA, one strand shown
Matrix: in vitro
Tested at: not given
Notes: k-mer, scored over probes, only values ≥0.25
Reading: higher = stronger binding
Oligonucleotide	E-score
ATAATGG	0.376
TATTCAA	0.357
CAATGAG	0.358
CAATTTC	0.336
ATTATTG	0.422
AATAGGC	0.277
ACAATAC	0.426
CATTCAG	0.36
ATTGATC	0.323
ATACTAT	0.268
AAAATTC	0.257
AATAGTA	0.311
CAAAGAA	0.29
ATATAAA	0.334
GAATTGA	0.346
CAATTAC	0.295
AATTTGA	0.36
CAATTCC	0.277
CAAATTG	0.331
AAATTAA	0.296
TATTTAA	0.289
ATTATGA	0.367
AATTGGG	0.299

Repeated from above (series 2):
Oligonucleotide	relative absorbance
AAAAAAAGTTTGACCTTGGCGTTCGTAAAA	100 % of maximum
AAAAAATCGTAAATGCCCATAGCCGTAAAA	14.9 % of maximum
AAAAAACTACGTATATTCAGGCCCTAAAAA	9.02 % of maximum
AAAAAACCCTAACGAATGCTTTTCGGAAAA	13.1 % of maximum
AAAAAAGTTATTATACCTGATCTCGCAAAA	11.9 % of maximum
